Assay results from different studies.
Compare with care: the assays were run in different laboratories. “And” joins repeats or separate records; there may be more than shown. ± marks the error that the study gave. In brackets after ≈: the same amount, converted by molar mass.
UniProt P21554, sequence (whole entry, unmodified, looked up): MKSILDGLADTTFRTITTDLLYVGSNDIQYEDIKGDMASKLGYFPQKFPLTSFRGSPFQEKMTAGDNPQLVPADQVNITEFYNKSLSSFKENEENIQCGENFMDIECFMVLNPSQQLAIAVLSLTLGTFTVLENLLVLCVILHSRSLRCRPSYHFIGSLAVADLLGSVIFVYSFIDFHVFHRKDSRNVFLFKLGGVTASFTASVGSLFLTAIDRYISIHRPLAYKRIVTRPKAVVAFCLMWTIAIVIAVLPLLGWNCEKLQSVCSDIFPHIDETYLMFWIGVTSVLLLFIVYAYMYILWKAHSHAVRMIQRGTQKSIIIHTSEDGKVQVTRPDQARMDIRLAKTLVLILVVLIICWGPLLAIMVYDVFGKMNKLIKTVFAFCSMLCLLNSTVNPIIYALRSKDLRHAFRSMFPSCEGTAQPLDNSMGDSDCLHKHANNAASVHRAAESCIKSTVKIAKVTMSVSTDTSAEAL
UniProt P80192, sequence (whole entry, looked up): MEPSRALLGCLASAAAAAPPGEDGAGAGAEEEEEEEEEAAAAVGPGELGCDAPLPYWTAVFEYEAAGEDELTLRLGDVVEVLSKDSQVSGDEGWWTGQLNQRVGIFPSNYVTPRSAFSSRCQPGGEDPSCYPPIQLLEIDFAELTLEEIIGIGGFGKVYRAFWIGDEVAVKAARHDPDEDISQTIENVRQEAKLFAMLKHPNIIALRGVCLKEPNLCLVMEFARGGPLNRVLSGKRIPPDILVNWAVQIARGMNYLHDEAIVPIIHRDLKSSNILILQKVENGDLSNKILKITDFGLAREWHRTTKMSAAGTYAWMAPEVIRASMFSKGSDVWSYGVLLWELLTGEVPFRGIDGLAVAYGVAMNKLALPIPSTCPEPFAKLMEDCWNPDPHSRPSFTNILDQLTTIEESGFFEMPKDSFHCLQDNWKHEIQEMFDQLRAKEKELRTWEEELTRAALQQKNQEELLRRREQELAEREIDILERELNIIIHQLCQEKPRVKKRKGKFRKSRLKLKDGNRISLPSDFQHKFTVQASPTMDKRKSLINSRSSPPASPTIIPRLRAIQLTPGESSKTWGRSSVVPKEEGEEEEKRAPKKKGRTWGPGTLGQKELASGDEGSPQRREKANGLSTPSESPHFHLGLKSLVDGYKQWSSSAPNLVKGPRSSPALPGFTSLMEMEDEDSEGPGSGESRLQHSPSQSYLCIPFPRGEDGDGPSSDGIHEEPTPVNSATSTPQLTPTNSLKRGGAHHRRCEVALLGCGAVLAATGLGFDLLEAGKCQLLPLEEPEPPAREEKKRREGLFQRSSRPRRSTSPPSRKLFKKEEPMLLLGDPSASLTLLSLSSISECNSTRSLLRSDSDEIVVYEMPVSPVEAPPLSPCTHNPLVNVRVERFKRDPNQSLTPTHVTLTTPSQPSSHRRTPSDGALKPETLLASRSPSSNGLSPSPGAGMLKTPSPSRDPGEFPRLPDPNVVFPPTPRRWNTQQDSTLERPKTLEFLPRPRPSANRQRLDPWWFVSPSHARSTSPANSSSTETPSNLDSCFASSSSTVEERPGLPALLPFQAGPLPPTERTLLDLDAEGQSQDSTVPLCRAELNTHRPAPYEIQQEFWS
UniProt Q13177, sequence (whole entry, looked up): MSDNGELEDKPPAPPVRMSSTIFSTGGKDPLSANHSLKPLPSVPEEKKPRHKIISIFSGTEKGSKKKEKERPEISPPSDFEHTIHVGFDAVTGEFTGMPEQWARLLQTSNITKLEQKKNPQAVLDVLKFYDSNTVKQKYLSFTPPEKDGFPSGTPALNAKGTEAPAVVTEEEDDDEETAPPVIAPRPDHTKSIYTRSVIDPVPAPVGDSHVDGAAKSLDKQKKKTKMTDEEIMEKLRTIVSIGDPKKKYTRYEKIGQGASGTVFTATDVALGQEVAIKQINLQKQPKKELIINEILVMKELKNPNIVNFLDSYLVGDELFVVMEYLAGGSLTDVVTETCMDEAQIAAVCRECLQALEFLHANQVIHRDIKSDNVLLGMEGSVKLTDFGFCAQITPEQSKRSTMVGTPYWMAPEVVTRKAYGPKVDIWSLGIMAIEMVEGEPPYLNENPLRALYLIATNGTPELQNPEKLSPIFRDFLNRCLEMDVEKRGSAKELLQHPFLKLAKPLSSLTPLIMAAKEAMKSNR
UniProt P08631, sequence (whole entry, looked up): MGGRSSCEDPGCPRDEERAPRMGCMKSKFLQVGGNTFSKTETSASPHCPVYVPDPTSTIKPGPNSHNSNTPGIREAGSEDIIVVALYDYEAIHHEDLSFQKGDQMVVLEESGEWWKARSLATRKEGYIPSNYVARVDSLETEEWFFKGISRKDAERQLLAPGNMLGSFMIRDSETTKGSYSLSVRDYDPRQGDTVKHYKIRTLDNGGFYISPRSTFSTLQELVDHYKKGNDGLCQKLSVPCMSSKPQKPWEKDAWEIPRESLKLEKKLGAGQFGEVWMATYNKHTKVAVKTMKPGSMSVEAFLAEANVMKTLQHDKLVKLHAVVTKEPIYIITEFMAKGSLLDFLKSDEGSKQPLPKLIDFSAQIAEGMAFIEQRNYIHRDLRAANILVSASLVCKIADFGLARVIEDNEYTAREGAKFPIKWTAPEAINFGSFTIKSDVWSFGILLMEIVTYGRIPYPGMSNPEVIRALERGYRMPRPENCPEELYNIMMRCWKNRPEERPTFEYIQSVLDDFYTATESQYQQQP
UniProt Q9DB29, sequence (whole entry, looked up): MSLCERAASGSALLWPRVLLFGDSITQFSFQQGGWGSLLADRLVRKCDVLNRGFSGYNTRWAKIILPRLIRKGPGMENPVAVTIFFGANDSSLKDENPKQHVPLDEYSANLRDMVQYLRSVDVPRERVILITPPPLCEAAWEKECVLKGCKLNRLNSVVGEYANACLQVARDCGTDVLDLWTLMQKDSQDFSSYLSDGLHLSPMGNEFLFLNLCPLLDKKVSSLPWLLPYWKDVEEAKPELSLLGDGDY

| Compound | target or system | test | system | conditions | scale | quantity | result |
| --- | --- | --- | --- | --- | --- | --- | --- |
| CN(C)[C@H]1C[C@@]23CC[C@@]4(O2)C(=CC[C@]2(C)[C@@H](c5ccc6ccncc6c5)CC[C@H]24)C=C3[C@@H](O)[C@@H]1O | Tyrosine-protein kinase HCK (HCK, Homo sapiens, UniProt P08631) | ATP probe labelling, inhibitor, KiNativ profiling |  | 1 µM |  | inhibition | 0.9% |
| Nc1ccc(/C=C/C(=O)N2CCc3c(oc4c(-c5ccc(F)cc5)cc(-c5ccc(C(=O)N6CCC(F)(F)CC6)cn5)cc34)C2)cn1 | Serine/threonine-protein kinase PAK 2 (PAK2, Homo sapiens, UniProt Q13177) | binding, competition with immobilised ligand |  | 1 µM |  | remaining binding | 91% |
| CC(C)CC(O)(CC(C)C)c1cn(C(=O)N2CCCC2)nn1 | Isoamyl acetate-hydrolyzing esterase 1 homolog (Iah1, Mus musculus, UniProt Q9DB29) |  | mouse, brain | concentration not given | relative to: vehicle over compound | activity-based probe labelling ratio | 1.57 |
| CCOc1ccc(CNCCc2ccc3c(c2)OCO3)cc1 | Trypanosoma cruzi | reporter mRNA translation, inhibitor, item: Renilla luciferase mRNA | cell-free extract | concentration not given, test 3 | relative to: positive over negative control | translation activity | 112% |
| Cc1ccc2c(C(C[N+](=O)[O-])c3cccs3)c(-c3ccccc3)[nH]c2c1 (stereo not shown) | Cannabinoid receptor 1 (CNR1, Homo sapiens, UniProt P21554, I245F) | β-arrestin recruitment, agonist, luciferase |  |  |  | Emax | 107% |
| O=C1NC(=O)c2c1c1cc(F)c[n+]3c1c1c2c2cc(O)ccc2[n]1[Ru-4]312([N]=C=S)[S+]3CC[S+]1CC[S+]2CC3 (stereo not shown) | Tyrosine-protein kinase ABL1 (ABL1, Homo sapiens, UniProt P00519, M351T) | enzyme activity |  | 100 nM, human enzyme, together with: 10 µM ATP | relative to: untreated | remaining activity | 95% |
| O=C1NC2(CC2)COc2ncc(F)cc2[C@H]2COCCN2c2ccn3ncc1c3n2 |  |  | Sprague-Dawley rat, male, blood | oral, 5 mg/kg/day, 4 weeks, end of recovery, subacute toxicity |  | neutrophil percentage | 11.6 ± 1.1% |
| CS(C)(=O)=Nc1ccc(-c2ccc(-c3nc4cc(O[C@@H]5CO[C@H]6[C@@H]5OC[C@H]6O)[nH]c4cc3F)cc2)cc1 | Tyrosine-protein kinase ABL1 (ABL1, Homo sapiens, UniProt P00519) | enzyme activity, inhibitor |  | 10 µM |  | inhibition | -20% |
| CC(C)[C@H]1NC(=O)C[C@H]2/C=C/CCSSC[C@@H](NC1=O)C(=O)N[C@H](Cc1cccc3ccccc13)C(=O)NCC(=O)O2 | Mitogen-activated protein kinase kinase kinase 9 (MAP3K9, Homo sapiens, UniProt P80192) | enzyme activity, inhibitor |  | 10 µM |  | inhibition | 7.5% |
| CCCC1COC(Cn2cncn2)(c2ccc(Cl)cc2Cl)O1 (stereo not shown) | Trypanosoma cruzi | reporter mRNA translation, inhibitor, item: capped polyadenylated Renilla luciferase mRNA | cell-free extract | concentration not given | relative to: control RNA | relative translation | 103% |
| C#CCN(Cc1ccc2nc(C)[nH]c(=O)c2c1)C(=O)NC(CSCC(N)=O)c1cccc([N+](=O)[O-])c1 (stereo not shown) | Mycobacterium tuberculosis | bacterial growth, inhibitor | H37Rv pptT conditional knockdown | PptT depleted, ATc withheld |  | MIC50 | 37.4 µM (≈ 19 µg/mL) |
| Cc1sc2c(c1C)C(c1ccc(Cl)cc1)=N[C@@H](CC(=O)OC(C)(C)C)c1nnc(C)n1-2 | Bromodomain testis-specific protein, BD1 (BRDT, Homo sapiens, UniProt Q58F21) | isothermal titration calorimetry |  | 15 °C, reverse titration |  | TΔS | 0.56 kcal/mol |
| Cc1ccsc1C(=O)C1CCCN(Cc2cnc(N3CCCC3)s2)C1 (stereo not shown) | Trypanosoma cruzi | reporter mRNA translation, inhibitor, item: Renilla luciferase mRNA | cell-free extract | concentration not given, test 2 | relative to: positive over negative control | translation activity | 130% and 108% |

Some of these lines once more:
| Compound | target or system | test | system | conditions | scale | quantity | result |
| --- | --- | --- | --- | --- | --- | --- | --- |
| Cc1sc2c(c1C)C(c1ccc(Cl)cc1)=N[C@@H](CC(=O)OC(C)(C)C)c1nnc(C)n1-2 | Bromodomain testis-specific protein, BD1 (BRDT, Homo sapiens, UniProt Q58F21) | isothermal titration calorimetry |  | 15 °C, reverse titration |  | TΔS | 0.56 kcal/mol |
| Cc1ccsc1C(=O)C1CCCN(Cc2cnc(N3CCCC3)s2)C1 (stereo not shown) | Trypanosoma cruzi | reporter mRNA translation, inhibitor, item: Renilla luciferase mRNA | cell-free extract | concentration not given, test 2 | relative to: positive over negative control | translation activity | 130% and 108% |
